Measurements of several laboratories.
Protocols differ between the studies behind these lines.
Cell line: HepG2

COc1ccc2ncc(F)c(C(O)C[C@H]3OC[C@H](NCc4ccc(Cl)c(Cl)c4)CO3)c2n1 (stereo partly drawn) gave an IC50 of 52.7 µg/mL (cytotoxicity; 24 h).
With CCCCCCCC(=O)N[C@@H](CCN)C(=O)N[C@H](C(=O)N[C@@H](CCN)C(=O)N[C@H]1CCNC(=O)[C@H]([C@@H](C)O)NC(=O)[C@H](CCN)NC(=O)[C@H](CCN)NC(=O)[C@H](CC(C)C)NC(=O)[C@@H](Cc2ccccc2)NC(=O)[C@H](CCN)NC1=O)[C@@H](C)O the IC50 was over 1280 µg/mL (cell growth or viability, MTT; 48 h).
The IC50 of COc1ccc2ncc(F)c(C[C@H](O)[C@H]3OC[C@H](NCc4ccc5c(c4)OCCO5)CO3)c2c1 is reported as 63 µg/mL (cytotoxicity; 24 h).
C[C@@H]1C(=O)O[C@@H](C)/C=C/C=C\[C@@H](C)[C@@H]2C=C[C@@H]3C[C@]4(C)O[C@@H]4[C@@H](C)[C@H]3[C@@H]2C(=O)C(Cl)(Cl)C1=O gave an IC50 of over 0.93 µg/mL (cell growth or viability, MTT; 5 days).
The IC50 of C[N+](C)(CI)CCO is reported as over 150 µM (cell viability; galactose medium; 24 h, mitochondrial toxicity).
The CC50 of C[N+]1=C2C=C(NCCc3c[nH]c4ccccc34)C(=O)c3[nH]cc(c32)CC1 is reported as 1.5 µM (cell growth or viability, MTT; 72 h).
The viability of c1cc2nc(c1)-c1cccc(n1)CCCc1ccc(cc1)OCCCCCCOc1ccc(cc1)CCC2 is reported as 87.4% (cell growth or viability, MTT; 25 µM, 24 h).
COc1ccc2nccc(CC[C@H]3OC[C@H](NC(=O)c4ccc5c(c4)NC(=O)CO5)CO3)c2c1 gave an IC50 of over 128 µg/mL (cytotoxicity; 24 h).
With Cc1cc(C(=O)Nc2nc3cccc(C)c3n2[C@H]2CCCCN(C(=O)/C=C/CN(C)C)C2)ccn1 the CC50 was 9.06 µM (cytotoxicity; 4 days, mean value).
The viability of CC[C@H](C)[C@@H](C(=O)N[C@@H](Cc1ccc(O)cc1)C(=O)N1CCC[C@H]1C(=O)N[C@@H](Cc1ccccc1)C(=O)O)n1cc(C(Cc2ccc(O)cc2)NC(=O)[C@@H](NC(=O)[C@H](CCCNC(=N)N)NC(=O)[C@@H](N)CC(=O)O)C(C)C)nn1 (stereo partly drawn) is reported as 80.3% (cell growth or viability, MTT; 50 µM, 24 h).
For COc1ccc2ncc(F)c(C(O)C[C@H]3OC[C@H](NCc4ccc5c(c4)OCCO5)CO3)c2c1 (stereo partly drawn), the IC50 was over 128 µg/mL (cytotoxicity; 24 h).
For COc1ccc2c(c1)c1c(n2CO)CN2CCc3cc(OC)c(OCc4ccccc4)cc3C2C1 (stereo not drawn), the viability was 107% (cell growth or viability; 20 µM, 24 h).
